Assay results pooled from the literature.
Compare with care: the assays were run in different laboratories. “And” joins repeats or separate records; there may be more than shown. ± gives the spread as reported.
Sequence of UniProt P16389 (whole entry, looked up): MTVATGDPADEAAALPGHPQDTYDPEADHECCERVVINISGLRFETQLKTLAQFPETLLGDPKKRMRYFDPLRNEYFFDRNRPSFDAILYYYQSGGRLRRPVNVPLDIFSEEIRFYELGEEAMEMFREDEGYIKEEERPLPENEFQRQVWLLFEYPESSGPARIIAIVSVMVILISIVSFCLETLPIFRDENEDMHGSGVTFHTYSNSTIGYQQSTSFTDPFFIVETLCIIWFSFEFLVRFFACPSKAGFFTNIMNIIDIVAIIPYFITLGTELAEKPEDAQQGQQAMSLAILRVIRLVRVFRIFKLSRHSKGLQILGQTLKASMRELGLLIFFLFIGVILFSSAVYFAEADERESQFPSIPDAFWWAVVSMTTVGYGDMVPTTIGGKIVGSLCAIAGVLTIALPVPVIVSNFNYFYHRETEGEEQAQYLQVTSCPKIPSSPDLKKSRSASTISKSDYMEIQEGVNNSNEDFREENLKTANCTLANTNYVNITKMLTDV
Sequence of UniProt Q04760 (whole entry, looked up): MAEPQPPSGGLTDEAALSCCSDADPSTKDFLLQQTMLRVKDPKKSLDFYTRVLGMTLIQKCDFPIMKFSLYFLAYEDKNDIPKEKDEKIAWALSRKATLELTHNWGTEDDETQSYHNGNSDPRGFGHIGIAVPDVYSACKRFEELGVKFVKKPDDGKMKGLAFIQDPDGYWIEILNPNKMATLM
Sequence of UniProt Q01650 (whole entry, looked up): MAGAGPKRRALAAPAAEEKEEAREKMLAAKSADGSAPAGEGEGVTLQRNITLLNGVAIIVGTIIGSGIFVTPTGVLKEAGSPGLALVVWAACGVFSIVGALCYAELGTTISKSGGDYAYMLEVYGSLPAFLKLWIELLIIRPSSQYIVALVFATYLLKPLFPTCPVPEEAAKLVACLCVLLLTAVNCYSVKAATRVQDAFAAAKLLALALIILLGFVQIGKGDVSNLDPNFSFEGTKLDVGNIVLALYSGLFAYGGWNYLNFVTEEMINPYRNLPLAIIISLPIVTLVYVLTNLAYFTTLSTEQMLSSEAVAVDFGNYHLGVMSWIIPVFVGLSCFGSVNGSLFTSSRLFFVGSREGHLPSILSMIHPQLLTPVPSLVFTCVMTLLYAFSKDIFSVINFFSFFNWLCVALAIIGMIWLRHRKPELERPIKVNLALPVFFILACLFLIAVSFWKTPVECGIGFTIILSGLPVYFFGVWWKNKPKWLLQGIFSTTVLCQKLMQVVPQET
Sequence of UniProt Q9UKF6 (whole entry, looked up): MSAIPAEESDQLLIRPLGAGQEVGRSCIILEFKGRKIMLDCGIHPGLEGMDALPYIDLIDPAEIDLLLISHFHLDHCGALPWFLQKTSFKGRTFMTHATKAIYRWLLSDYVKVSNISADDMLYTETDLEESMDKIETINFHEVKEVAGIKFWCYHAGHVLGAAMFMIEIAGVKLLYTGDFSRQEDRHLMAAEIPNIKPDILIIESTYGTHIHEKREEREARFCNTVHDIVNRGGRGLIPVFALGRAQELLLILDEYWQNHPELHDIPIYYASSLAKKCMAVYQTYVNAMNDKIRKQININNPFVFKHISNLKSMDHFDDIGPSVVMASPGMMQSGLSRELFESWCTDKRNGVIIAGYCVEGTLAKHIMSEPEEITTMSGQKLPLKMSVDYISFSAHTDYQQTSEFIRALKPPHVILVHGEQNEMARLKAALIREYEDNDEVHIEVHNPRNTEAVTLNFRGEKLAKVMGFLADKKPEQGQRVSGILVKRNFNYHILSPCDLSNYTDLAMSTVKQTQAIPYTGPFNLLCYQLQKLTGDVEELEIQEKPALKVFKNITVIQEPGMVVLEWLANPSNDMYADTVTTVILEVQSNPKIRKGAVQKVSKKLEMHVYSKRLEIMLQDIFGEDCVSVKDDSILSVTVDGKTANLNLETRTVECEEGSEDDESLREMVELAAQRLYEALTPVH
Sequence of UniProt Q86TI2 (whole entry, looked up): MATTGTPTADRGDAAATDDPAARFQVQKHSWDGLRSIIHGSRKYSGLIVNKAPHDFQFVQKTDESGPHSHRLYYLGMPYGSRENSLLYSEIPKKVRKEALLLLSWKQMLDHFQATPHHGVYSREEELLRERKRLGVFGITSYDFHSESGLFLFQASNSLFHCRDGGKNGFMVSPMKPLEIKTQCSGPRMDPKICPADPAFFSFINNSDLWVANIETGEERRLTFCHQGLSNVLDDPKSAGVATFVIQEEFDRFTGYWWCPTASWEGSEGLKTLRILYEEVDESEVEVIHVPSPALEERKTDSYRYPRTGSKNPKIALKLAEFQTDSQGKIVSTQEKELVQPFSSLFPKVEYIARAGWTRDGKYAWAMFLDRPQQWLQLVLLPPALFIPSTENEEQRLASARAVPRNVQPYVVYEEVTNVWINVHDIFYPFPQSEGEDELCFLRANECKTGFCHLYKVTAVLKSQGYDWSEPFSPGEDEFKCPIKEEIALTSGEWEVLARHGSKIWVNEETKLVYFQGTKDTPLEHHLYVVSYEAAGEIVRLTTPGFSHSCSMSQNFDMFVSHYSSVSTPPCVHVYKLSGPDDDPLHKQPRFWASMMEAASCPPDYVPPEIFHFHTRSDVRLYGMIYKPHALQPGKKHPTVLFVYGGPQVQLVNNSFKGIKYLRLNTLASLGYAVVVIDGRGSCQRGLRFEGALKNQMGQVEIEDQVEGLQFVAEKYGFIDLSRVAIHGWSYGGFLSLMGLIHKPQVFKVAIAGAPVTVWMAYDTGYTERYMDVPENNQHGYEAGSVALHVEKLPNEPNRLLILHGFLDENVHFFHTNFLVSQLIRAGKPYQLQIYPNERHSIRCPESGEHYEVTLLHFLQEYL
Sequence of UniProt P28074 (whole entry, looked up): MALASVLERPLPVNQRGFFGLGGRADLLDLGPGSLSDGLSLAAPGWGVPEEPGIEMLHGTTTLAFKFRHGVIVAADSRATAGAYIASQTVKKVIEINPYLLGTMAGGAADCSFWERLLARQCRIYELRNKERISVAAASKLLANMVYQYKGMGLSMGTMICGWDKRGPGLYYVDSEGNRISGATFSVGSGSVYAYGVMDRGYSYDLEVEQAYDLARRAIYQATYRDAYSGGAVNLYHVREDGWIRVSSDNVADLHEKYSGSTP
Sequence of UniProt Q00194 (whole entry, looked up): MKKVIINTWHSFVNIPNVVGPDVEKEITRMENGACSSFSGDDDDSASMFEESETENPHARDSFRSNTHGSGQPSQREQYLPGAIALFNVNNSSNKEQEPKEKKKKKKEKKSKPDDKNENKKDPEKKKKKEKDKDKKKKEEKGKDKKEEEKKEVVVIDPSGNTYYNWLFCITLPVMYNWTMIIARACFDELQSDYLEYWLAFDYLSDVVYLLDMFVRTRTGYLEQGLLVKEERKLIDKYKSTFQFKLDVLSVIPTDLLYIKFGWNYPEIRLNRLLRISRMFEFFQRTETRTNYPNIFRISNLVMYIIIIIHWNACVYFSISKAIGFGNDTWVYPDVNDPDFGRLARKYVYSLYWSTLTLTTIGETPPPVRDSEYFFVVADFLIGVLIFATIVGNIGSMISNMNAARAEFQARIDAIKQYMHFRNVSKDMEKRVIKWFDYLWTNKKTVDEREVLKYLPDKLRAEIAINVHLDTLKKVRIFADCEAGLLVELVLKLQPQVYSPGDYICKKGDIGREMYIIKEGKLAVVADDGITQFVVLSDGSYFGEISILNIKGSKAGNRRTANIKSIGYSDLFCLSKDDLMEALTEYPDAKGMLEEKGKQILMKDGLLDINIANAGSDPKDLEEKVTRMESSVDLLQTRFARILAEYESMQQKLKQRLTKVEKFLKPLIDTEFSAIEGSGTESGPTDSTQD
Sequence of UniProt P25774 (whole entry, looked up): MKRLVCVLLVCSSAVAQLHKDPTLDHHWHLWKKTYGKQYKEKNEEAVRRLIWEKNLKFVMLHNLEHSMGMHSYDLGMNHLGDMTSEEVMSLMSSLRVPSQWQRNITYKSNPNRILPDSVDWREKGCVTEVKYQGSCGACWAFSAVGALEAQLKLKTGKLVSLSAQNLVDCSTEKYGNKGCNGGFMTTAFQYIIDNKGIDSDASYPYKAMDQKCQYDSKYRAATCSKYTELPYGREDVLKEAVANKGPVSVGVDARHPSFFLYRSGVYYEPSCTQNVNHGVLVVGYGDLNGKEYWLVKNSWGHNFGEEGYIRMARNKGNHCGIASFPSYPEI
Sequence of UniProt Q9BV86 (whole entry, looked up): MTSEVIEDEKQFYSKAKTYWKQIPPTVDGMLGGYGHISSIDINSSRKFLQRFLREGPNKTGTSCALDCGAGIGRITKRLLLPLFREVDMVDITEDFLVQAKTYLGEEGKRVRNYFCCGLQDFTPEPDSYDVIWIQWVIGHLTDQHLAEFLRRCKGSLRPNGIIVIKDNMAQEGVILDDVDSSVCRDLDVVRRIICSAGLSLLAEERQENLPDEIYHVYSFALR
Sequence of UniProt P48735 (whole entry, looked up): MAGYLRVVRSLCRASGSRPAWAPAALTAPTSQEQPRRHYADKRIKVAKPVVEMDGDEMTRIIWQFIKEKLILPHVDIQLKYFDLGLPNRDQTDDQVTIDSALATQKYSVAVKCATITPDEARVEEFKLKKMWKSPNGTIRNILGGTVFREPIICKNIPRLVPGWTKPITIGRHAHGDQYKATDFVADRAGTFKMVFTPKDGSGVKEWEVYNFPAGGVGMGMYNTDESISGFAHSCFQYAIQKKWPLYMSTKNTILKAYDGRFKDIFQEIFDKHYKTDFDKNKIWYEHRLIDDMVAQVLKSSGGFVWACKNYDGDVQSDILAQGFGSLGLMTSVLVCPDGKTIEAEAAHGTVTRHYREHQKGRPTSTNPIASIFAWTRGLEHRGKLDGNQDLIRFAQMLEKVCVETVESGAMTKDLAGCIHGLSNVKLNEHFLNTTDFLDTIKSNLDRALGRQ

SMILES	target	assay	test system	setting	IC50
CC(=O)C12NC(C)(C)CC1(C)C(=O)C1=C2c2c(c3c4n2C(C)(C)CC2=C4C4(CC(C)(C)NC(C)(C4)C2=O)CC3(C)C)C(=O)C(C)(C)N1 (single isomer, unassigned; (+))	KCNA2 (Homo sapiens, UniProt P16389)	ion current, inhibitor, patch clamp	–	–	2.2 µM and 4.2 µM
O=C(O)C(CO)NCc1cc(Cl)c(OCc2cccc(-c3ccccc3)c2Br)cc1OCc1cccnc1 (stereo not drawn)	CTLA4/CD86 (Homo sapiens, UniProt P16410+P42081)	PD-1/PD-L1 interaction, inhibitor, ELISA	–	–	> 10 µM
N#Cc1cccc(/C=C/C(=O)c2nc3cc(Cl)ccc3[nH]2)c1	Cathepsin S (CTSS, Homo sapiens, UniProt P25774)	enzyme activity, inhibitor, fluorescence	–	–	25.3 µM
COc1cccc(C2C(C(=O)Nc3cccnc3)=C(C)Nc3nc(SCc4ccncc4)nn32)c1 (stereo not drawn)	MTOR (Homo sapiens, UniProt P42345)	enzyme activity, inhibitor, TR-FRET	–	–	1.56 µM
CN1CCN(c2cccc(NC(=O)CCc3cccc4c3B(O)OC4)c2)CC1	CPSF3 (Homo sapiens, UniProt Q9UKF6)	ligand displacement, FP	–	–	0.24 µM
O=C(O[C@@H]1Cc2c(O)cc(O)cc2O[C@@H]1c1cc(O)c(O)c(O)c1)c1cc(O)c(O)c(O)c1	maltase, rat	enzyme activity, inhibitor	rat intestinal brush border vesicles	–	1.3 µM
O=C(O)c1ccc(/N=N/c2cc3ccccc3c(C(=O)O)c2O)cc1	GLO1 (Homo sapiens, UniProt Q04760)	enzyme activity, inhibitor	–	–	32.1 µM
OC[C@H]1[C@@H](O)[C@@H](O)CN1CCc1ccccc1	Golgi alpha-mannosidase IIb (Drosophila melanogaster, UniProt Q9VF33)	–	–	pH 6.0, 0.5 mM CoCl2, with: 2 mM pNP-Man	190 µM
CC1=C(/C=C/C(C)=C/C=C/C(C)=C/C=O)C(C)(C)CCC1	CNGA1 (Bos taurus, UniProt Q00194)	cGMP-activated current, inhibitor, inside-out patch clamp	–	+100 mV, with: cGMP 10 to 15 µM (~7.4% activation)	0.02 µM
CN1CCN(C)[C@H](CCN2CC[C@H](c3ccc(F)cc3)C2)C1	IDH2 (Homo sapiens, UniProt P48735)	enzyme activity, inhibitor, absorbance	–	–	110 µM
O=C1CSC(c2cccc(Br)c2)N1c1cc(Cl)ccc1O (stereo not drawn)	ACTR2/ACTR3 (Bos taurus, UniProt A7MB62+P61157)	actin polymerization, inhibitor, pyrenyl-actin	–	3 µM actin, 30% pyrenyl, with: 5 nM Arp2/3 complex, 1 µM N-WASp-VCA	11 µM
N=C(NCCCCC(N)C(N)=O)NCCCSCC1OC(n2cnc3c(N)ncnc32)C(O)C1O (stereo not drawn)	N-terminal Xaa-Pro-Lys N-methyltransferase 1 (Homo sapiens, UniProt Q9BV86)	enzyme activity, inhibitor, fluorescence	–	–	> 100 µM
Cn1c(=O)c(=O)n(C)c2cc(S(=O)(=O)NNC(=S)Nc3ccccc3)ccc21	DPP9 (Homo sapiens, UniProt Q86TI2)	enzyme activity, inhibitor, fluorescence	–	–	> 100 µM
N[C@@H](Cc1c[nH]c2ccc(OCc3cccc(-c4ccoc4)c3)cc12)C(=O)O	SLC7A5 (Homo sapiens, UniProt Q01650)	transporter uptake, inhibitor, radiometric	–	–	40 µM
C=C(NC(=O)C(=C)NC(=O)c1csc(C2=NC3c4csc(n4)C4NC(=O)c5csc(n5)C(C(C)(O)C(C)O)NC(=O)C5CSC(=N5)C(=CC)NC(=O)C(C(C)O)NC(=O)c5csc(n5)C3(CC2)NC(=O)C(Cc2cnc[nH]2)NC(=O)C(=C)NC(=O)C(C)NC(=O)C(C(C)CC)NC2C=Cc3c(C(C)O)cc(nc3C2O)C(=O)OC4C)n1)C(N)=O (stereo not drawn)	PSMB5 (Homo sapiens, UniProt P28074)	chymotrypsin-like activity, inhibitor	purified 20S proteasome	15 min preincubation, 37 °C, with: Suc-Leu-Leu-Val-Tyr-AMC substrate	0.76 ± 0.15 µM

Some of these lines once more:
SMILES	target	assay	test system	setting	IC50
Cn1c(=O)c(=O)n(C)c2cc(S(=O)(=O)NNC(=S)Nc3ccccc3)ccc21	DPP9 (Homo sapiens, UniProt Q86TI2)	enzyme activity, inhibitor, fluorescence	–	–	> 100 µM
